Results from different studies.
Each line is one published result; not all experiments were run side by side. Numbers after ± are the reported error.

CC(C)C[C@H](NC(=O)[C@@H](CCCCNC(=O)CCCCCNC(=O)CN1CCN(CC(=O)O)CCN(CC(=O)O)CCN(CC(=O)O)CC1)NC(=O)[C@H](Cc1ccc(O)cc1)NC(=O)[C@H](CO)NC(=O)[C@H](Cc1c[nH]c2ccccc12)NC(=O)[C@H](Cc1cnc[nH]1)NC(=O)[C@@H]1CCC(=O)N1)C(=O)N[C@@H](CCCNC(=N)N)C(=O)N1CCC[C@H]1C(=O)NCC(N)=O [indium-111 labelled]
tissue uptake (female athymic nude mouse, lung; intravenous, 0.037 MBq, 2 h): 0.28 ± 0.12 %ID/g

N=C(N)NCCC[C@@H]1NC(=O)[C@H](CCCCNC(=O)CNC(=O)CNC(=O)CNC(=O)CC[C@H](NC(=O)CNC(=O)CNC(=O)CNC(=O)CC[C@H](NC(=O)CN2CCN(CC(=O)O)CCN(CC(=O)O)CCN(CC(=O)O)CC2)C(=O)NCC(=O)NCC(=O)NCC(=O)N[C@@H](CCC(=O)NCC(=O)NCC(=O)NCC(=O)NCCCC[C@@H]2NC(=O)[C@@H](Cc3ccccc3)NC(=O)[C@H](CC(=O)O)NC(=O)CNC(=O)[C@H](CCCNC(=N)N)NC2=O)C(=O)NCC(=O)NCC(=O)NCC(=O)NCCCC[C@@H]2NC(=O)[C@@H](Cc3ccccc3)NC(=O)[C@H](CC(=O)O)NC(=O)CNC(=O)[C@H](CCCNC(=N)N)NC2=O)C(=O)NCC(=O)NCC(=O)NCC(=O)NCCCC[C@@H]2NC(=O)[C@@H](Cc3ccccc3)NC(=O)[C@H](CC(=O)O)NC(=O)CNC(=O)[C@H](CCCNC(=N)N)NC2=O)NC(=O)[C@@H](Cc2ccccc2)NC(=O)[C@H](CC(=O)O)NC(=O)CNC1=O [indium-111 labelled]
tissue uptake (female athymic nu/nu mice, brain; intravenous, 0.5 h): 0.13 ± 0.08 %ID/g

CCCC[C@H](NC(=O)CCCCCCCNC(=O)CN1CCN(CC(=O)O)CCN(CC(=O)O)CC1)C(=O)N[C@H]1CC(=O)NCCCC[C@@H](C(N)=O)NC(=O)[C@H](Cc2c[nH]c3ccccc23)NC(=O)[C@H](CCCNC(=N)N)NC(=O)[C@@H](Cc2ccccc2)NC(=O)[C@H](Cc2c[nH]cn2)NC1=O [copper-64 labelled]
tissue uptake (C57 mice, lung; intravenous, 0.37 MBq, 4 h): 0.36 ± 0.08 %ID/g

CCCC[C@H](NC(=O)CNC(=O)CNC(=O)CN1CCN(CC(=O)O)CCN(CC(=O)O)CCN(CC(=O)O)CC1)C(=O)N[C@H]1CC(=O)NCCCC[C@@H](C(N)=O)NC(=O)[C@H](Cc2c[nH]c3ccccc23)NC(=O)[C@H](CCCNC(=N)N)NC(=O)[C@@H](Cc2ccccc2)NC(=O)[C@H](Cc2c[nH]cn2)NC1=O [lutetium-177 labelled]
tissue uptake (C57 mouse, female, heart; intravenous, 0.037 MBq, 4 h): 0.23 ± 0.11 %ID/g

CC(C)C[C@H](NC(=O)[C@H](Cc1ccc(O)cc1)NC(=O)[C@@H](CCCNC(=N)N)NC(=O)[C@@H](CO)NC(=O)[C@H](Cc1ccccc1)NC(=O)[C@H](CC1CCCCC1)NC(=O)[C@H](CC(=O)O)NC(=O)CN1CCCN2CCN(CCCN(CC(=O)O)CC2)CC1)C(=O)N[C@@H](Cc1c[nH]c2ccccc12)C(=O)N[C@@H](CO)C(=O)O [copper-64 labelled]
tissue uptake (female NMRI nude mice, brain; 1 h p.i.): 0.2 ± 0.1 %ID/g

CCCC[C@H](NC(=O)COCCOCCNC(=O)CN1CCN(CC(=O)O)CCN(CC(=O)O)CC1)C(=O)N[C@H]1CC(=O)NCCCC[C@@H](C(N)=O)NC(=O)[C@H](Cc2c[nH]c3ccccc23)NC(=O)[C@H](CCCNC(=N)N)NC(=O)[C@@H](Cc2ccccc2)NC(=O)[C@H](Cc2c[nH]cn2)NC1=O [copper-64 labelled]
tissue uptake (C57 mice, tumor; intravenous, 0.37 MBq, 0.5 h): 16.2 ± 0.42 %ID/g

N=C(N)NCCC[C@@H]1NC(=O)[C@H](CCCCNC(=O)CC[C@H](NC(=O)CC[C@H](NC(=O)CN2CCN(CC(=O)O)CCN(CC(=O)O)CCN(CC(=O)O)CC2)C(=O)N[C@@H](CCC(=O)NCCCC[C@@H]2NC(=O)[C@@H](Cc3ccccc3)NC(=O)[C@H](CC(=O)O)NC(=O)CNC(=O)[C@H](CCCNC(=N)N)NC2=O)C(=O)NCCCC[C@@H]2NC(=O)[C@@H](Cc3ccccc3)NC(=O)[C@H](CC(=O)O)NC(=O)CNC(=O)[C@H](CCCNC(=N)N)NC2=O)C(=O)NCCCC[C@@H]2NC(=O)[C@@H](Cc3ccccc3)NC(=O)[C@H](CC(=O)O)NC(=O)CNC(=O)[C@H](CCCNC(=N)N)NC2=O)NC(=O)[C@@H](Cc2ccccc2)NC(=O)[C@H](CC(=O)O)NC(=O)CNC1=O [indium-111 labelled]
tissue uptake (female athymic nu/nu mice, muscle; intravenous, 0.5 h): 1.79 ± 0.38 %ID/g

CCCC[C@H](NC(=O)CNC(=O)CNC(=O)CN1CCN(CC(=O)O)CCN(CC(=O)O)CC1)C(=O)N[C@H]1CC(=O)NCCCC[C@@H](C(N)=O)NC(=O)[C@H](Cc2c[nH]c3ccccc23)NC(=O)[C@H](CCCNC(=N)N)NC(=O)[C@@H](Cc2ccccc2)NC(=O)[C@H](Cc2c[nH]cn2)NC1=O [technetium-99m labelled]
tissue uptake (C57 mouse, liver; iv, 0.037 MBq, 4 h): 1.43 ± 0.31 %ID/g

For quick reference, copied from above:
CC(C)C[C@H](NC(=O)[C@@H](CCCCNC(=O)CCCCCNC(=O)CN1CCN(CC(=O)O)CCN(CC(=O)O)CCN(CC(=O)O)CC1)NC(=O)[C@H](Cc1ccc(O)cc1)NC(=O)[C@H](CO)NC(=O)[C@H](Cc1c[nH]c2ccccc12)NC(=O)[C@H](Cc1cnc[nH]1)NC(=O)[C@@H]1CCC(=O)N1)C(=O)N[C@@H](CCCNC(=N)N)C(=O)N1CCC[C@H]1C(=O)NCC(N)=O [indium-111 labelled]
tissue uptake (female athymic nude mouse, lung; intravenous, 0.037 MBq, 2 h): 0.28 ± 0.12 %ID/g
